Published values pooled from the literature.
Chain of UniProt P22607 (whole entry, looked up): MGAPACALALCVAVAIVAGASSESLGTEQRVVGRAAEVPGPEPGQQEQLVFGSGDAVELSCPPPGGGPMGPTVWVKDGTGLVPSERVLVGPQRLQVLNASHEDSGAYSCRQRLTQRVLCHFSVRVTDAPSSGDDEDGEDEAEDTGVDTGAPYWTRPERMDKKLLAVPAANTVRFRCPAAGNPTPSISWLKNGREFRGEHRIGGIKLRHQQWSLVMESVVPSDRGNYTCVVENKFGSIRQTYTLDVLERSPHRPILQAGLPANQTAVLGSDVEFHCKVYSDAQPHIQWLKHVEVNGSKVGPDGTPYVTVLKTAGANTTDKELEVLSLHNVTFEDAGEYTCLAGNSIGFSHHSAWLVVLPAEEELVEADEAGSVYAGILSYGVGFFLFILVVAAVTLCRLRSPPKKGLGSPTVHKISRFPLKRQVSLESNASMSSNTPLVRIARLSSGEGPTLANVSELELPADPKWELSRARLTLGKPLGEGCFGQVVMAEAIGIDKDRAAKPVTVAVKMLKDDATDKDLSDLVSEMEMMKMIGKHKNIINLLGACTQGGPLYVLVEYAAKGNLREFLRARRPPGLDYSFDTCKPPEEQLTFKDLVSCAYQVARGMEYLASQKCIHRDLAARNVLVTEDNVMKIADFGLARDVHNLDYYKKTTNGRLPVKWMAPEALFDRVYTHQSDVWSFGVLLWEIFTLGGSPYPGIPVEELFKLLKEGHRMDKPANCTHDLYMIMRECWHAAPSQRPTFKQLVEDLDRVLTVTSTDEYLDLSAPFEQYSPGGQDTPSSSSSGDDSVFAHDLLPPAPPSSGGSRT
Chain of UniProt Q00532 (whole entry, looked up): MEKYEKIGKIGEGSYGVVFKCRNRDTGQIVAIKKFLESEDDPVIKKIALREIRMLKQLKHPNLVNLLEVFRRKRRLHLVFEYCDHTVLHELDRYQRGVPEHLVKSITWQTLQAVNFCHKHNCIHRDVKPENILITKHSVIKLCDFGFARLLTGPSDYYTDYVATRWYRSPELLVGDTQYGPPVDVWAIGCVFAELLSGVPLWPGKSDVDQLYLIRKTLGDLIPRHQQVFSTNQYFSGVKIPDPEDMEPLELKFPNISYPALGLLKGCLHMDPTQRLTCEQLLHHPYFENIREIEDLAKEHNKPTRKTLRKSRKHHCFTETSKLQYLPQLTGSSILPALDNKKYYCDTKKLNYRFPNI
Chain of UniProt Q16288 (whole entry, looked up): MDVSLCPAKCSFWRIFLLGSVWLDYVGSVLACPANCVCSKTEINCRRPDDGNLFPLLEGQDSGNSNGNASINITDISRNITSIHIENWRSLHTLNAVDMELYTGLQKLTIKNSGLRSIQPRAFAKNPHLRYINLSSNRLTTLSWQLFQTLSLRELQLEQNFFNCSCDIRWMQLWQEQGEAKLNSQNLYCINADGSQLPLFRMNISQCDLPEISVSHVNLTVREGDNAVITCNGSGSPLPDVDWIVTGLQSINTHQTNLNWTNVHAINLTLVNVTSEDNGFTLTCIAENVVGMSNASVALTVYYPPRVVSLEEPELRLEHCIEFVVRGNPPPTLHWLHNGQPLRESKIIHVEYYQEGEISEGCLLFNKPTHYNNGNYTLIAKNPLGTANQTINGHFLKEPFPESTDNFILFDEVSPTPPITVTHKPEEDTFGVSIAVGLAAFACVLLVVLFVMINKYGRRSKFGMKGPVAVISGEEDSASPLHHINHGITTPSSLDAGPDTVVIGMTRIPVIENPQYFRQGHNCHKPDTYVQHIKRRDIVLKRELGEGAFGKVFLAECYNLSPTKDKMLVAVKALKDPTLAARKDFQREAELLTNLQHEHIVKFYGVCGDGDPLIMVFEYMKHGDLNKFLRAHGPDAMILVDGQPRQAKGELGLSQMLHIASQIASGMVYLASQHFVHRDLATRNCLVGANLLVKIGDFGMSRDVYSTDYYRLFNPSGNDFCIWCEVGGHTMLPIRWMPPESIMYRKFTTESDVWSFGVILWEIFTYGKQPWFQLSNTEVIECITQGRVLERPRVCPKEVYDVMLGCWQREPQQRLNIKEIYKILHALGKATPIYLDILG
Chain of UniProt Q14012 (whole entry, looked up): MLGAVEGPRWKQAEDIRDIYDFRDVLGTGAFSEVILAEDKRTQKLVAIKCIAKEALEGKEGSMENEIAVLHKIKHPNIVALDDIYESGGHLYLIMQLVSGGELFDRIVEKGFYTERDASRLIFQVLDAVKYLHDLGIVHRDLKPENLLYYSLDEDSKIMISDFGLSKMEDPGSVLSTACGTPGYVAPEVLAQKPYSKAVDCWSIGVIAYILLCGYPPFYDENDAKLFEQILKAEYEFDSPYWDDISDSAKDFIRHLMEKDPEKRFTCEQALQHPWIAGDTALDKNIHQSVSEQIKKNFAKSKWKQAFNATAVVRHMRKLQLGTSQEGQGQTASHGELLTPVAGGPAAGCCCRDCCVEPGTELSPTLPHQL

| SMILES | target or system | assay | test system | conditions | endpoint | value |
| --- | --- | --- | --- | --- | --- | --- |
| CCCC(=O)N[C@@H](Cc1ccccc1)C(=O)N[C@@H](Cc1ccc2ccccc2c1)C(=O)N[C@@H](CCCNC(=N)N)C(=O)N[C@@H](CCCNC(=N)N)C(=O)N[C@@H](CCCNC(=N)N)C(=O)N[C@@H](CCCNC(=N)N)C(=O)N[C@@H](CC)C(=O)N[C@@H](CCCCNC(=S)Nc1ccc2c(c1)C(=O)OC21c2ccc(O)cc2Oc2cc(O)ccc21)C(N)=O | – | chemical stability | human, serum | – | half-life | ~0.25 h |
| COc1cc(-c2cncc3c2CN(C)Cc2cc(N4CCNCC4)ccc2-3)cc(OC)c1OC | CAMK1 (Homo sapiens, UniProt Q14012) | enzyme activity, inhibitor | – | 1 µM | remaining activity | 113% |
| O=C(COc1ccc(Cl)cc1)NC12CC(c3nnc([C@H]4C[C@@H](OC(F)(F)F)C4)o3)(C1)C2 | – | – | human, plasma | oral, 200 mg, single dose, fasted, healthy volunteers | half-life | 30.6 h |
| O=C(c1ccc(F)cc1)C1CCN(CCn2c(=O)[nH]c3ccccc3c2=O)CC1 | – | metabolic stability | monkey, liver microsomes | – | half-life | 0.46 h |
| C=CCn1c(=O)c2cnc(Nc3ccc(N4CCN(C)CC4)cc3)nc2n1-c1ccc2c(n1)[C@@](O)(CC)CC2 | – | metabolic stability | dog, hepatocytes | – | half-life | 7.43 h |
| N#C[C@@]12C[C@@H]1[C@@H](n1cnc3c(N[C@@H](C4CCC4)C4CC4)nc(I)nc31)[C@H](O)[C@@H]2O | – | – | male Wistar rat, plasma | oral, 10 mg/kg | half-life | 1.75 h |
| CNc1ncc2c(/C=C/C(=O)N3CCC(OC)CC3)nn(Cc3cccc(C(F)(F)F)c3)c2n1 | NTRK3 (Homo sapiens, UniProt Q16288) | enzyme activity, inhibitor, radiometric | – | 1 µM | remaining activity | 83% |
| CC(=O)N(C)[C@H]1CCN(C(=O)c2cnc3c(c2)C[C@](C)(c2ccc(F)cc2)N3)C1 | – | – | male human, plasma | oral, 15 mg, multiple doses, once daily, steady state | half-life | 24.3 h |
| O=c1ccc2ccc(O)cc2o1 | – | metabolic stability | monkey, liver microsomes | – | half-life | 0.0408 h |
| O=C1CC[C@H](N2Cc3cc(N4CCN(CC5CCN(c6ccc([C@@H]7c8ccc(O)cc8CC[C@@H]7c7ccccc7)cc6)CC5)CC4)ccc3C2=O)C(=O)N1 | – | – | male Sprague-Dawley rat, plasma | oral, 20 mg/kg, fasted | half-life | 2.86 h |
| C=CC(=O)N1CCC(COCC(=O)N2CCN(c3nc(-c4cnc(N)nc4C(F)F)nc(N4CCOC[C@@H]4C)n3)CC2)CC1 | CDKL1 (Homo sapiens, UniProt Q00532) | binding, competition with immobilised ligand | – | 1 µM | remaining binding | 82% |
| Cc1cc([C@@H](C)Nc2ccccc2C(=O)O)c2nc(N3CCC(F)(F)CC3)c(C#N)c(=O)n2c1 | FGFR3 (Homo sapiens, UniProt P22607) | binding, competition with immobilised ligand | – | 10 µM | remaining binding | 100% |
| COc1ccc2c(c1)CN(C(=O)CCN1CCC(Cc3ccccc3)CC1)CC[S@@+]2[O-] | – | – | male human, plasma | intravenous, 0.01 mg/kg, single dose, healthy volunteers | half-life | 4.81 h |

A few entries again:
| SMILES | target or system | assay | test system | conditions | endpoint | value |
| --- | --- | --- | --- | --- | --- | --- |
| N#C[C@@]12C[C@@H]1[C@@H](n1cnc3c(N[C@@H](C4CCC4)C4CC4)nc(I)nc31)[C@H](O)[C@@H]2O | – | – | male Wistar rat, plasma | oral, 10 mg/kg | half-life | 1.75 h |
| C=CC(=O)N1CCC(COCC(=O)N2CCN(c3nc(-c4cnc(N)nc4C(F)F)nc(N4CCOC[C@@H]4C)n3)CC2)CC1 | CDKL1 (Homo sapiens, UniProt Q00532) | binding, competition with immobilised ligand | – | 1 µM | remaining binding | 82% |
